Measured values of several laboratories.
Protocols differ between the studies behind these lines. Numbers after ± are the reported error.

| Substance | assay | test system | conditions | how to read | quantity | value |
| --- | --- | --- | --- | --- | --- | --- |
| CCCCCCCCCC(=O)N[C@@H](Cc1c[nH]c2ccccc12)C(=O)N[C@H](CC(N)=O)C(=O)N[C@@H](CC(=O)O)C(=O)N[C@@H]1C(=O)NCC(=O)N[C@@H](CCCN)C(=O)N[C@@H](CC(=O)O)C(=O)N[C@H](C)C(=O)N[C@@H](CC(=O)O)C(=O)NCC(=O)N[C@H](CO)C(=O)N[C@@H]([C@H](C)CC(=O)O)C(=O)N[C@@H](CC(=O)c2ccccc2N)C(=O)O[C@@H]1C | – | Japanese patients with SSTI | intravenous, 4 mg/kg once daily, 7 to 14 days, test-of-cure, MITT-MRSA | – | clinical success | 81.8% |
| CC(C)NC(=O)[C@H]1CCC[C@H]1Nc1nc(Nc2ccc(C(=O)N(C)C3CCN(C)CC3)cc2)ncc1C(F)(F)F | immunohistochemistry, item: phospho-histone H3 | advanced solid tumour patients, skin biopsy epidermis | day 2 of cycle 1, dosing | – | effective dose | ≥ 43 mg |
| O=C(NC1CCNCC1)c1n[nH]cc1NC(=O)c1c(Cl)cccc1Cl | – | patients, skin biopsy | dose not given, 24 h after infusion end | relative to: pre-dose | Ki67 change | no effect |
| Cc1ccc2ccc3cc4ccccc4cc3c2c1 | adrenal haemorrhage prevention | rat | oral, added: 7,12-DMBA 5 mg i.v. | – | minimal protective dose | 0.5 mg |
| CCN(O)N=Nc1ccc(S(=O)(=O)Nc2nccs2)cc1 | paw oedema | rat, carrageenan oedema | oral, 100 mg/kg, 4 h after carrageenan | relative to: vehicle | inhibition | 71.7% |
| [2H]C([2H])(NC(=O)c1cc(C(=O)NCc2ccc(F)c(C)c2)ncn1)c1ccc(C(=O)O)cc1 | histology | rat, MIA-induced osteoarthritis, knee MTP, LTP and LFC | intra-articular, 1 mg on 5, 12, 19 days after MIA, day 26 | relative to: vehicle | proteoglycan loss reduction | 15 to 19% |
| CCC1SC(NN=C2c3ccccc3-c3nc4cc(F)ccc4nc32)=NC1=O (stereo not drawn) | – | mice with STZ-induced diabetes | oral, 25 mg/kg, 288 h, day 12 | – | blood glucose | 202 ± 13.5 mg/dL |
| c1ccc2c(c1)ccc1c3c(ccc12)CCC3 | adrenal haemorrhage prevention | rat | oral, added: 7,12-DMBA 5 mg i.v. | – | minimal protective dose | 2 mg |
| CN(C)C(=N)N=C(N)N | – | male Wistar rat, MCAO | oral, 200 mg/kg once daily, 7 days before, read 48 h after MCAO, added: liraglutide 1 mg/kg s.c. + empagliflozin 2 mg/kg | relative to: brain volume | infarct volume | 8.67% |
| CC[C@H](C)[C@H](NC(=O)[C@H](CCC(=O)O)NC(=O)[C@H](CO)NC(=O)[C@@H](NC(=O)[C@@H](N)CO)C(C)C)C(=O)N[C@@H](CCC(N)=O)C(=O)N[C@@H](CC(C)C)C(=O)N[C@@H](CCSC)C(=O)N[C@@H](Cc1c[nH]cn1)C(=O)N[C@@H](CC(N)=O)C(=O)N[C@@H](CC(C)C)C(=O)NCC(=O)N[C@@H](CCCCN)C(=O)N[C@@H](Cc1c[nH]cn1)C(=O)N[C@@H](CC(C)C)C(=O)N[C@@H](CC(N)=O)C(=O)N[C@@H](CO)C(=O)N[C@@H](CCSC)C(=O)N[C@@H](CCC(=O)O)C(=O)N[C@@H](CCCNC(=N)N)C(=O)N[C@H](C(=O)N[C@@H](CCC(=O)O)C(=O)N[C@@H](Cc1c[nH]c2ccccc12)C(=O)N[C@@H](CC(C)C)C(=O)N[C@@H](CCCNC(=N)N)C(=O)N[C@@H](CCCCN)C(=O)N[C@@H](CCCCN)C(=O)N[C@@H](CC(C)C)C(=O)N[C@@H](CCC(N)=O)C(=O)N[C@@H](CC(=O)O)C(=O)N[C@H](C(=O)N[C@@H](Cc1c[nH]cn1)C(=O)N[C@@H](CC(N)=O)C(=O)N[C@@H](Cc1ccccc1)C(=O)O)C(C)C)C(C)C | item: corrected serum calcium | postmenopausal women, osteoporosis | subcutaneous, 56.5 µg once weekly, 6 h | – | peak serum calcium | 9.7 to 9.8 mg/dL |
| Cc1c(C)c2c(c(C)c1O)CCC(C)(C(=O)NN=C1C(=O)Nc3ccccc31)O2 (stereo not drawn) | seizure protection | male CF-1 mice | intraperitoneal, 4 h, added: maximal electroshock | – | minimal effective dose | > 300 mg/kg |
| Cc1cc(C(=O)/C(=C\c2ccc(Cl)cc2)c2ccc(Cl)cc2)c(C(=O)N2CCCCC2)c(=O)[nH]1 | cell proliferation, MTT | 35404 melanoma brain metastasis, human patient-derived | 72 h, tested up to 10 µM | – | IC50 | > 10000 nM |
| O=C(NC[C@H]1CN(c2ccc(N3CCOCC3=O)cc2)C(=O)O1)c1ccc(Cl)s1 | – | human, moderate renal impairment, plasma | oral, 10 mg, added: erythromycin at steady state | relative to: same subjects, compound alone | prothrombin time AUC(0-48h) increase | ~79% |
| CC[C@H](C)[C@@H]1NC(=O)[C@H](CCCNC(=N)N)NC(=O)[C@H](CC(=O)O)NC(=O)[C@H](CC(C)C)NC(=O)[C@H](CCCCN)NC(=O)[C@H](CC(C)C)NC(=O)CNC(=O)[C@H](Cc2ccccc2)NC(=O)[C@@H](NC(=O)CNC(=O)[C@H](CCCCN)NC(=O)[C@H](CO)NC(=O)[C@H](CC(C)C)NC(=O)CNC(=O)[C@H](CCCCN)NC(=O)[C@H](CCCCN)NC(=O)[C@H](CC(N)=O)NC(=O)[C@H](C)NC(=O)CNC(=O)[C@H](CCCCN)NC(=O)[C@H](Cc2ccc(O)cc2)NC(=O)[C@H](CCCCN)NC(=O)[C@H](CCCNC(=N)N)NC(=O)[C@H](C)NC(=O)[C@H](CC(N)=O)NC(=O)[C@@H]2CCCN2C(=O)[C@H](Cc2c[nH]cn2)NC(=O)[C@H](CCC(=O)O)NC(=O)[C@H](CCC(N)=O)NC(=O)CNC(=O)[C@@H]2CCCN2)CSSC[C@@H](C(=O)O)NC(=O)CNC(=O)[C@H](CC(C)C)NC(=O)CNC(=O)[C@H](CO)NC(=O)[C@H](CCSC)NC(=O)[C@H](CO)NC(=O)CNC1=O | annualized growth velocity change | human patients with achondroplasia | day 183, sigmoid Emax vs AUC(0-t) | relative to: baseline | Emax | 2.41 cm/year |
| CC(C)[C@H](NC(=O)C(C)(F)F)[C@H](Oc1ccc2c(cnn2-c2ccc(=O)n(C)c2)c1)c1ccccc1 | TNF-alpha release | human, whole blood ex vivo | unbound concentration, PK/PD model, added: lipopolysaccharide | – | IC50 | 4.87 nM |
| Cc1c(C)c2c(c(C)c1O)CCC(C)(C(=O)NN=C1C(=O)Nc3cc(Cl)ccc31)O2 (stereo not drawn) | seizure protection | male CF-1 mice | intraperitoneal, 4 h, added: maximal electroshock | – | minimal effective dose | 300 mg/kg |
| CC1(C)CCC(c2ccc(Cl)cc2)=C(CN2CCN(c3ccc(C(=O)NS(=O)(=O)c4ccc(N[C@H](CCN5CCOCC5)CSc5ccccc5)c(S(=O)(=O)C(F)(F)F)c4)cc3)CC2)C1 | cell kill, PI exclusion flow cytometry | normal CD21+ B lymphocytes, dog, lymph node | 24 h | – | EC50 | 430 ± 440 nM |
| CS/C(S)=N/CCCC[S+](C)[O-] (racemic) | RT-PCR, item: Arnt | rat, colon | oral gavage, 200 mg/kg, 96 h, dosed for four days | relative to: vehicle | mRNA fold change | 2.52 |
| AQAGEDPHGYFLPGQFAFS | cytokine expression suppression | peptide, mouse peritoneal macrophages, C57BL/6 mice | 1 h pretreatment, added: LPS/IFN-γ 15 h | – | optimal dose | 100 pM |
| GEBGABGNKGEQGPKGEBGP | – | peptide, DBA/1 mouse, collagen-induced arthritis | iv, 0.3 mg single dose, day 25, established arthritis | – | arthritis incidence | 80% |

| Substance | assay | test system | conditions | how to read | quantity | value |
| --- | --- | --- | --- | --- | --- | --- |
| COc1c(C)c(C)c2c(c1C)CCC(C)(C(=O)NN=C1C(=O)Nc3ccc(Br)cc31)O2 (stereo not drawn) | seizure protection | male CF-1 mice | intraperitoneal, 0.5 h, added: pentylenetetrazole 60 mg/kg subcutaneous | – | minimal effective dose | 30 mg/kg |
| CC(=NN=c1[nH]c(C)c(N=Nc2ccc(Br)cc2)s1)c1c(O)c2ccccc2oc1=O | – | mice with Ehrlich ascites carcinoma | ip, 2 mg/kg twice weekly, 2 weeks | – | body weight change | 8.5% |
| SIIVFEKL | flow cytometry, item: CD44hi CD8+ T cells | peptide, OT-I CD8+ T cells, mouse | dose not given, primed 5 days, restimulated 100 ng/mL OVA257, added: no TGF-β1 | – | IL-2+ IFN-γ+ cells | 3.93% |
| CC(C)C[C@H](NC(=O)[C@H](CO)NC(=O)[C@H](CCCNC(=N)N)NC(=O)[C@H](CC(=O)O)NC(=O)[C@H](CCC(=O)O)NC(=O)[C@H](C)NC(=O)[C@@H]1CCCN1C(=O)[C@H](C)NC(=O)[C@H](CCC(=O)O)NC(=O)[C@@H]1CCCN1C(=O)[C@@H]1CCCN1)C(N)=O | HPLC-EC | F344 rat, normal, striatum | intranasal, 100 µg, 5 days/week for 3 weeks | – | HVA level | 570 ± 78 ng/g |
| Cc1cc(C)cc(/C=C(\C(=O)c2cc(C)[nH]c(=O)c2C(=O)N2CCCCC2)c2cc(C)cc(C)c2)c1 | cell proliferation, MTT | 35404 melanoma brain metastasis, human patient-derived | 72 h, tested up to 10 µM | – | IC50 | > 10000 nM |
| CCOc1nc2cccc(C(=O)O)c2n1Cc1ccc(-c2ccccc2-c2nn[nH]n2)cc1 | – | mouse DSS colitis | transanal, 10 mg/kg/day, day 1 | relative to: baseline | body weight change | -0.63 ± 1.63% |
| CCCN(O)N=Nc1ccc(S(=O)(=O)Nc2onc(C)c2C)cc1 | paw oedema | rat, carrageenan oedema | oral, 100 mg/kg, 4 h after carrageenan | relative to: vehicle | inhibition | 68.6% |
| CCN(c1nc(N)c(C(=O)NC(=N)N)nc1Cl)C(C)C | – | mice, MCAO focal ischemia | intracerebroventricular, 1 µL, 2 mM, 24 h, 30 min before 60 min MCAO | – | infarct volume | 29.4% |
| COc1cc(Nc2ncc3c(n2)-c2ccc(Cl)cc2C(c2c(F)cccc2OC)=NC3)ccc1C(=O)O | RECIST | human | 50 mg twice daily, 12 cycles | – | tumour reduction | < 50% |
| CCOC(=O)C=C1SC(NN=C2c3ccccc3-c3nc4cc(F)ccc4nc32)=NC1=O | – | mice with STZ-induced diabetes | oral, 25 mg/kg, 288 h, day 12 | – | blood glucose | 323 ± 65.2 mg/dL |
| Cc1c(C)c2c(c(C)c1O)CCC(C)(C(=O)NN=C1C(=O)Nc3ccc(Cl)cc31)O2 (stereo not drawn) | seizure protection | male CF-1 mice | intraperitoneal, 0.5 h, added: maximal electroshock | – | minimal effective dose | 30 mg/kg |
| CCOC(=O)c1sc(N=C2c3ccccc3-c3nc4cc(F)ccc4nc32)nc1C | – | mice with STZ-induced diabetes | oral, 25 mg/kg, 288 h, day 12 | – | blood glucose | 178 ± 3.8 mg/dL |
| Cc1ccc2cc3c(ccc4cc(C)ccc43)cc2c1 | adrenal haemorrhage prevention | rat | oral, added: 7,12-DMBA 5 mg i.v. | – | minimal protective dose | 0.5 mg |
| Bevacizumab | lung metastasis | BGC-823, BALB/c NOD SCID mice, xenograft | dose not given | – | inhibition | 62.7% |
| O=S(=O)(Nc1nccs1)c1ccc(N=NN(O)c2ccccc2)cc1 | paw oedema | rat, carrageenan oedema | oral, 100 mg/kg, 2 h after carrageenan | relative to: vehicle | inhibition | 17.4% |
| Cc1c(C)c2c(c(C)c1OCc1ccccc1)CCC(C)(C(=O)NN=C1C(=O)Nc3ccc(Br)cc31)O2 (stereo not drawn) | seizure protection | male CF-1 mice | intraperitoneal, 4 h, added: maximal electroshock | – | minimal effective dose | > 300 mg/kg |
| Cc1ccc(C(=O)Nc2ccnc(S(N)(=O)=O)c2)c(N2CCCC(F)(F)CC2)n1 | capsaicin-induced flinching, inhibitor | humanized NaV1.8 rats, unbound plasma concentration | – | relative to: vehicle | IC50 | 6.78 nM |
| Cn1cnc2c(F)c(Nc3ccc(Br)cc3Cl)c(C(=O)NOCCO)cc21 | volumetric MRI | human | 30 mg | relative to: best response | tumour volume increase | 44% |
| NCCCC[C@@H]1NC(=O)[C@@H](Cc2c[nH]c3ccccc23)NC(=O)[C@H](c2ccccc2)NC(=O)[C@@H]2C[C@@H](OC(=O)NCCN)CN2C(=O)[C@H](Cc2ccccc2)NC(=O)[C@H](Cc2ccc(OCc3ccccc3)cc2)NC1=O | GHRH-stimulated GH secretion | healthy human volunteers | subcutaneous, 30 µg, added: GHRH 1 µg/kg | relative to: pre-dose baseline | GH AUC(0-2h) change | -45.3% |

A few entries again:
| Substance | assay | test system | conditions | how to read | quantity | value |
| --- | --- | --- | --- | --- | --- | --- |
| CC(C)NC(=O)[C@H]1CCC[C@H]1Nc1nc(Nc2ccc(C(=O)N(C)C3CCN(C)CC3)cc2)ncc1C(F)(F)F | immunohistochemistry, item: phospho-histone H3 | advanced solid tumour patients, skin biopsy epidermis | day 2 of cycle 1, dosing | – | effective dose | ≥ 43 mg |
| Cc1ccc2cc3c(ccc4cc(C)ccc43)cc2c1 | adrenal haemorrhage prevention | rat | oral, added: 7,12-DMBA 5 mg i.v. | – | minimal protective dose | 0.5 mg |
